# Experimental data from different studies.
# Numbered parts are unrelated; each lists some results of a single study.

# Set 1
# Target: Hepatocyte nuclear factor 3-alpha (Foxa1, Mus musculus, UniProt P35582, residues 1-468, full length assumed)
# Technique: EMSA with sequencing
# Molecule type: double-stranded DNA, one strand shown
# Medium: in vitro
# Concentration: 10 and 20 nM
# Setting: whole designed probe, mean of two concentrations, ends assumed
# Reference: negative control set to 0
# Reading: higher = stronger binding
# All sequences stand within: GTGAGCGGTGCCCATTGATGGGGAAC … TTTCACTGGGATCGTGGGGAC
# Construct (chain): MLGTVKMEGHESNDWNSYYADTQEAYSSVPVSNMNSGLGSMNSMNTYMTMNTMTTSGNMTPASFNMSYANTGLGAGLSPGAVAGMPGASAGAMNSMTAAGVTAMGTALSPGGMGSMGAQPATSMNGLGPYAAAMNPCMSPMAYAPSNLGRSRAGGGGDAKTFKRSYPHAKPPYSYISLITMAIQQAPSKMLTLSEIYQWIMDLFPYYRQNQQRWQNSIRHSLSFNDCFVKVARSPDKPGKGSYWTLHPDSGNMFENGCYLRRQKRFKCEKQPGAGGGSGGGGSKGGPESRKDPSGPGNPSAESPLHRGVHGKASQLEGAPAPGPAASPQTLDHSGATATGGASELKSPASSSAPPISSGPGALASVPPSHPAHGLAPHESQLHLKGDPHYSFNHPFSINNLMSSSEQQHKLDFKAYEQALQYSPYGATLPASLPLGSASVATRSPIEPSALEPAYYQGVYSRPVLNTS
Oligonucleotide,normalised bound fraction [ratio]
TTTACCTATGTCAAGAATGCATTCTTCTGCCTTTATAGTTCCAGCATCTCTTGAGTCTATATTCTAAATTAATAATGACTGAGCCCCAGTTGCTTGTTTACATTTTATGGGCCTAATTAAATTAGGAAAAATAATCACCTGCAAGCAAAGATGTGATACACTTCCTGTACGACCAAAAAATACTCTCAGGTTA,0.389
AGATTCCAGCCAGCAGAATAGGAATTTCAGAATACGATAAGGAGATGTTAAGGAAGGTCAGGCAGTAAAAAGAGGTTTGCTGACTCATGTGGTTAGATGACTTAGCAAGTCAGGGAGAAGTCAATAGATTGCTCTCCTGTTTTACAGTCTTTAGGTGTGGGCCAGCCCAGGGCCATTGATAGTCATTTTAGCC,-0.0436
TCCACAGTAGAAACGAAGGAGATGACAGATACCCCGGCACCAAAACTGACACCAGGTTTTTGTTGCTTCTTCCACTATATAATGGAGAAGTTCTGTTTACTCTATACTGTTGTGCAACGTTAACATTGGCTTAAGGAAACCCAAGAAACTGAATCACATCAAAGGTATGTCAGAGGTATGTGAACCAGAGCAA,0.291
GCAGTTGAACTTAAATATAAAGTTGAGCTTAGATACAAAGGTTCTTTAGAACTTTAAAAGACATGGGTGAACAAAACCCAAACTAATCCTCTGATGTTTACTTAGAAACAAAAACCTAAATGAAATTCAAAATAGATATCTGAATCTAGATTTGTGTATAAACATTAGATTGAAAGACTAGGGTCTGGAACAG,0.463
TGGAATTCAAATTCCAGTGGCTTAACTGCAAGAGTCCCTGCTTCCATCACTCTGTTAGGCTGTACTCATGGCCTTGAAATATCCCTTAAGGTTATTTACTTTCTTATGCTCTGGTTCTTTGCTAAACAAACAAGCTTTCAATTATTAATTTGGCTTCCTACGTGTTCTGATCCTGTAAAGGAATTATTCCATT,0.506
ATTGTACCTAGCTTCAATACAGTTATCTAAACCAGGAAAATGGTTTTCTGACTGTATTAGTCGCCTAGGGCTGCTTTAATAGGTCTTGCAAAAGTACACATATACTTGTCTTAACACTCAGCAATTCCACCGTTAGTATTTACCCCAAAATGATAAGCAATTCTGCAAATATGCTTCAGTTTACATATTTAGA,0.406
GCTCTTGCACCAAAGCTTCCTAAAGTTGGTGATTTATTTCTGACAAGTCTGCAAAACCTGAGACAGCATTTTTCTGGGTTGAACTCACACTTCGTGTTTACTGAAGTCTGAGTCACGGCCCTGCCTTGCTCACAGGCACGCCTGACTGTTCTTTACGCTGATACCAGTATGCAGGGCCAGCTCCCTCTACCAT,0.0664
ACCAAGTTTCTGTAAAGATGGAAGAACAAGGTAACAGAAAGGAGAAATAACATGCCATGTTCCAAAGGGAAGTATTGTGGGCCCCTAAAGTACAAATTACTTTTCTACAGTGTGTCACTGCAAATATATATACACAAGTCAAGTTATGTGAGTCATCTACAGATTTAAGTTCCTAAGTTGGAGGGGAGAGCCC,0.0245

# Set 2
# Target: RNA binding protein fox-1 homolog 2, RRM domain, GST-SBP tag (RBFOX2, Homo sapiens, UniProt O43251-10, residues 100-194)
# Technique: RNA Bind-n-Seq
# Molecule type: RNA
# Medium: in vitro
# Concentration: 365 nM
# Setting: natural RNA segment, single round, ends assumed
# Reference: no-protein control
# Reading: higher = stronger binding
# All sequences stand within: GGGAGUUCUACAGUCCGACGAUC … UGGAAUUCUCGGGUGCCAA
# Target sequence (chain): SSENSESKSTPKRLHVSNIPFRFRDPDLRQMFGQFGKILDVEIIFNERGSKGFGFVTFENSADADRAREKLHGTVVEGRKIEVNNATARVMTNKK
Oligonucleotide,RBNS enrichment (R)
CACAUAAGAUUAAAAAUUCCUUCCUCAGUUGCACUAACCACGUUUCUAGAGGCGUCACUGUAUGUAGUUCAUGGCUACUGUACUGACAGCGAGAGCAUGUCCAUCUGUUG,9.7
CUAUGAAGCCAGCUGACAGAAGCAUCACAUGUCUUGGGCUGAUGCCGCUACCCGGUUCAUUUAUUUGCAAUUUGAGCCAUUUAAAGACCAAUAAAAUUCCUUUUCUAUAA,0.914
CCCGUUCUUGGGUGUAAUGUUGCUCCCUGAUCCCAUAUCCCUGUGAAAAUGACUUAGGAAAAAACGUUUCUGAGCAAGCAUUCUGGCCCAUGCACUGGCUGAAGUGGGCA,0.758
GCAUUGGGGAUUUUUGUUCUCAGCUCCCAGGCCGCACUGAACACAGUGUUGCUGCCUUCAGUUUGGUUCUGGCCAUGAGGCCCCUAGUGGGAGCUUUGCCCUUAGGGCUG,0.341
CUGGAUAGCGAUUAUUUGUGGAAUUGUUGCACAUGCUCCUCUAUUGAAAGGGGUUUUUCCCUAGUCAAGCAUUUGGAGACACUUUUUGUAAAUGUGACUUUUAUGUCAGC,0.329
GUAUUGGGGCAAUGUGUCAGGGAGGAAUCACCACAUCCCUACGGCAGUCCCAGCCAAGCCCCCAAUCCCAGCGGAGACUGUGCCCUGCUCAGAGCUCCCAAGCCUUCCCC,0.671
UUAAUUAAGUCCAAAAACAGCUGUCAGAACCUCGAGAGCAGAACAUGAGAAACUCAGAGCUCUGGACCGAAAGCAGAAAGUUUGCCGGGAAAAAAAAAGACAACAUUAUU,0.689
UGAGGGCUGCCUCUGUGCCAGGAUGCCAAGGACCGCUGCACAUUUCCAAAUUCACAGCAGUGGAUCCCAUGCCACUUUGCUGUCCUGAGCACCCCAGACUUGACUGUGUA,11.5

# Mixed results
Structure (SMILES),technique,host,dose,setting,quantity,value
CC(C)n1cnc(-c2ccc(F)cc2)c1-c1ncc(C(=O)Nc2ccc(N3CCN(C)CC3)cc2)[nH]1,,IPF patients,60 mg once daily,adverse event,Coagulopathy incidence,0%
CCOC(=O)[C@@H]1CSCC(=O)N[C@@H](CC)C(=O)N(CC(C)C)CC(=O)N[C@@H](CC(C)C)C(=O)N(C)[C@H](C)C(=O)N(C)[C@@H](C)C(=O)N[C@H](CC(C)C)C(=O)N(C)[C@H](C)C(=O)N[C@@H](CC(C)C)C(=O)N1C,PRP-column chromatography,,,,log k' (60),0.634

# Some of these lines once more (mixed results):
Structure (SMILES),technique,host,dose,setting,quantity,value
CC(C)n1cnc(-c2ccc(F)cc2)c1-c1ncc(C(=O)Nc2ccc(N3CCN(C)CC3)cc2)[nH]1,,IPF patients,60 mg once daily,adverse event,Coagulopathy incidence,0%
